Experimental data of several laboratories.
Every numbered part comes from another study and shows a few of its results, in no order. Positions count from the first letter of the parent shown.

Study 1
Target: Hepatocyte nuclear factor 3-alpha (Foxa1, Mus musculus, UniProt P35582, residues 1-468, full length assumed)
Method: EMSA with sequencing
Form: double-stranded DNA, one strand shown
Sample: in vitro
Tested at: 10 and 20 nM
Notes: whole designed probe, mean of two concentrations, ends assumed
Reference: negative control set to 0
Reading: higher = stronger binding
Construct (chain): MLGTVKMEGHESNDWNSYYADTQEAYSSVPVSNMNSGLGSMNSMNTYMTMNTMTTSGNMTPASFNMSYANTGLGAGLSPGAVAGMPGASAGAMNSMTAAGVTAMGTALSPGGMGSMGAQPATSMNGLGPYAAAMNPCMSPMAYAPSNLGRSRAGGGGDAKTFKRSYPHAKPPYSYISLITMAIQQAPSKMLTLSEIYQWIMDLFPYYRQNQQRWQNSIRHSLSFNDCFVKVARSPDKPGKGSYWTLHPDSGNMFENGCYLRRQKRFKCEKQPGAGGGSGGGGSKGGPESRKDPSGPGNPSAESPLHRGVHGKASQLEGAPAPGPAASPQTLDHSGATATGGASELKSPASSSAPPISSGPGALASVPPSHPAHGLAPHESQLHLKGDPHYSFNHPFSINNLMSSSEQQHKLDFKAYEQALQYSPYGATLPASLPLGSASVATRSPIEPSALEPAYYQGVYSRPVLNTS
Sequence | normalised bound fraction [ratio]
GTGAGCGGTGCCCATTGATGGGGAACATGTGTGTATTTGTACTTAATTTTGGGCAATTGGAAAAAAACTTTTCTATGTGATCCTTCAGCCTAGCAACGAATCAAGCTACTTTTCTTCATGTTTACTTAATTATTTTGTATGCTCCCCATCCAAGCAAGCAATTCAAGTATATGTAACAATCAGAGGGGACCAAACATAAACCAAAAAATGGTCATATGTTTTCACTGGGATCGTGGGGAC | 0.394
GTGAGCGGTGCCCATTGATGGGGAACGAACATGCCCCACAGATCATCTGAGCAGCTGCTGGCACTAACCCCATCCATCCGGGGCAACAGGCTCCACAGGCCCCGGGGAGAGGCTGAGCTGTTTACTTTTGGTTTCTCAATAACTCCTGTTTCCGAGGGCTCTCTGCCAAAGGGAGAGAGAGGGAAGTGGCATCCCATGGCCCTGTCCAAGGACAGCCCATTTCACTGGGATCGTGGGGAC | 0.29
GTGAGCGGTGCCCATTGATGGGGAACTCCCCCAAAACGTTATTGCTTGCACTGTGGGACCTGATCCAGTGGGCTGTCATGGACGAACGGCAACACCCACTGGGACCCTATTCCCTTTGTGTAATCTGAGCAGCTCCAAACCGCGGCCCTCCTGGGCCCCCTAGCGGCAGCAGCGATGGGCACAACGTTCAAAGATCCCTCAAAGCCCTCGGGGAGTGGCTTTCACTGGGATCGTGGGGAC | -0.00606
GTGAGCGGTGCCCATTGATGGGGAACCAAATCAAAAGACAAAAGAAACTAATCATTCCTTTTAAAGATAATTGCTGTTTTTATCAGATCAATAAAAAATGTGTTAACAACATTAAAAAGTAATCTAGCAAACACAAATGTCAAAAAAGCTAACCTAATGATGACATGTCACTTTCTCCAGTCCCAGCCCCACATCATATAGGAACTTTCCAACTGCCTGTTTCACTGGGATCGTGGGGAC | 0.00478
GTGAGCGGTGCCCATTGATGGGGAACGTTTGGCATTTATTTTTACTTTGTTGTAATAGTAAACACAAGGGATCCCCTTTATTTAGCATAAAATTTCCTTGCCAGAAAGTAAATATTTGATGTTTATATAAGCAGCTATAAAAACAATTTCCTGAGAGATTTCTCCACAAAAATATTTACCTGCTTGAGCCGATGGATTGAGATGATTTGGAAACCAAACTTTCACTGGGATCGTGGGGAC | 0.399
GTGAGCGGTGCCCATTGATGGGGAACATCCCAGGGCCTCTGGGCCTCCCACTGCACTGTGTCATCTGCCATTTGGTGTTTTCTTGGAGAAGAAGCTCTGTCATCTTCTTACATGAGCAAAGTAATCTTCTATGTCTCTCCCACATTGTTGGTCATGTTTTCTGTTACTTGCAGCTGAATGCATTCCTGTGCCATCAATCATGTCCACTTTAGAGATAAATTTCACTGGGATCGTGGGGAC | -0.0635
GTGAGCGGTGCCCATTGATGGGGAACCACACACACACACACACCCCACACACGCACTACGAGAAGGGGAGTTTGATCTTGTCTCATTGGCGTCTCGGGTCTGAAAGGAAAATCGTTTGGGTAAACAGCCAAGCTTCCAGGCTTAACGCCCGGCTCCCGCCCCCGCCCCTCCATCCCCTCCTGCCTCCCCCACTCGCCTTCAACCCCACCCGCCACCCACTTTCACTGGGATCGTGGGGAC | 0.108
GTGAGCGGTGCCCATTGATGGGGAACTCCAAGCGCTCCGAATGTCCACTTGCAGATGCTACAAAAAGAGTGTTTCAAAACTGCTCTATGAAAAGGAATGTGCAAATCTGTGAGATAAATGCAATCTTCACAAAGAAGTCTTTGAGAATGCTTCTGTCTAGTTTGTATGTTAAGATATTTCCCATTTCACCATACGTCTTAACGCACACCAAATGTCCACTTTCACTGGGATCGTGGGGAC | -0.0535

Study 2
Target: Interferon regulatory factor 3, full length, phosphomimetic (IRF3, Homo sapiens, UniProt Q14653, residues 1-427, S386D/S396D/S398D/S402D/T404D/S405D)
Method: protein-binding microarray
Form: double-stranded DNA, one strand shown
Sample: in vitro
Tested at: 2540 nM top
Notes: 60-bp whole probe
Together with: salmon DNA 0.4 mg/ml
Reference: random background probes
Reading: higher = stronger binding
Constant ends, left off below: GCCTAGCAC … GTCTTGATTCGCTTGACGCTGCTG
Construct (chain): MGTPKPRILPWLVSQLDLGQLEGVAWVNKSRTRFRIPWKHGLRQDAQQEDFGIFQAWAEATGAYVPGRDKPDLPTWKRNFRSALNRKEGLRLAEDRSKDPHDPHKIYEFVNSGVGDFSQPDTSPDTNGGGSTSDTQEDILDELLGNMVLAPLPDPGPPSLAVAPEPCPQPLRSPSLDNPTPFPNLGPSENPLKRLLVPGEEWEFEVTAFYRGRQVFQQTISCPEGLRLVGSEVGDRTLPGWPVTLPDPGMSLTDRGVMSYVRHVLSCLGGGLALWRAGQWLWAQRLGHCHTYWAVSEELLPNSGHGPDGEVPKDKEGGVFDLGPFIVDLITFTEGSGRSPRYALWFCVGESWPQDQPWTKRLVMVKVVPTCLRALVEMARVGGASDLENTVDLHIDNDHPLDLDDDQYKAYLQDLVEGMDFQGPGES
Sequence | fitted relative affinity [z-score]
GACGGTCCCGGTCTCGGGACGTGCTAG | 0.459
TTAGGTTTCGGCTTCGGTTAGTGCTAG | 3.5
TTAGGACTGGGGTTGCGGTTAGTGCTA | -0.0617
TCACCTCTCAACCATCCTACTGTGCTA | 0.561
CACTCTCTACATGTGTTTAAGTGCTAG | 1.58
TTAGGTCTCCTTCTTCTTTAGTGCTAG | 3.8
TTAGGACTGGACTTGCGGTTAGTGCTA | -0.305
GACGGTATCGACTTTCGGGACGTGCTA | 1.39

Study 3
Partner: ARF16 570-670 (Arabidopsis thaliana, UniProt Q93YR9)
Method: two-hybrid
Reference: out of 4 tests
Reading: higher = firmer interaction
B1: IAA18 (Arabidopsis thaliana, UniProt O24408); chain MEGYSRNGEISPKLLDLMIPQERRNWFHDEKNSVFKTEEKKLELKLGPPGEEDDDESMIRHMKKEPKDKSILSLAGKYFSPSSTKTTSHKRTAPGPVVGWPPVRSFRKNLASGSSSKLGNDSTTSNGVTLKNQKCDAAAKTTEPKRQGGMFVKINMYGVPIGRKVDLSAHNSYEQLSFTVDKLFRGLLAAQRDFPSSIEDEKPITGLLDGNGEYTLTYEDNEGDKMLVGDVPWQMFVSSVKRLRVIKTSEISSALTYGNGKQEKMRR
B2: ARF14 497-605 (Arabidopsis thaliana, UniProt Q9LQE8); chain SPTEIQSKQFSSTRTCTKVQMQGVTIGRAVDLSVLNGYDQLILELEKLFDLKGQLQARNQWEIAFTNNEEDKMLVGEDPWPEFCNMVKKIFIYSKEEVKNLKSRKSLSS
B3: ARF8 699-811 (Arabidopsis thaliana, UniProt Q9FGV1); chain NSSNQTKNFVKVYKSGSVGRSLDISRFSSYHELREELGKMFAIEGLLEDPLRSGWQLVFVDKENDILLLGDDPWESFVNNVWYIKILSPEDVHQMGDHGEGSGGLFPQNPTHL
B4: IAA32 (Arabidopsis thaliana, UniProt Q8RYC6); chain MDPNTPADFFKGSSKFHTYYSQTKKGGGVIDLGLSLRTIQHETYLPPARMIGLDGYGELIDWSQPSYNSITQLKSEDTGHQRLAQGYYNNEGESRGKYAYVKVNLDGLVVGRKVCLVDQGAYATLALQLNDMFGMQTVSGLRLFQTESEFSLVYRDREGIWRNVGDVPWKEFVESVDRMRIARRNDALLPF
B5: ARF4 660-788 (Arabidopsis thaliana, UniProt Q9ZTX9); chain QSSSKRICTKVHKQGSQVGRAIDLSRLNGYDDLLMELERLFNMEGLLRDPEKGWRILYTDSENDMMVVGDDPWHDFCNVVWKIHLYTKEEVENANDDNKSCLEQAALMMEASKSSSVSQPDSSPTITRV
B6: IAA19 (Arabidopsis thaliana, UniProt O24409); chain MEKEGLGLEITELRLGLPGRDVAEKMMKKRAFTEMNMTSSGSNSDQCESGVVSSGGDAEKVNDSPAAKSQVVGWPPVCSYRKKNSCKEASTTKVGLGYVKVSMDGVPYLRKMDLGSSQGYDDLAFALDKLFGFRGIGVALKDGDNCEYVTIYEDKDGDWMLAGDVPWGMFLESCKRLRIMKRSDATGFGLQPRGVDE
B7: ARF2 727-859 (Arabidopsis thaliana, UniProt Q94JM3); chain TKTNSSRSCTKVHKQGIALGRSVDLSKFQNYEELVAELDRLFEFNGELMAPKKDWLIVYTDEENDMMLVGDDPWQEFCCMVRKIFIYTKEEVRKMNPGTLSCRSEEEAVVGEGSDAKDAKSASNPSLSSAGNS
B8: ARF7 1030-1164 (Arabidopsis thaliana, UniProt P93022); chain PAQTQRMRTYTKVQKRGSVGRSIDVNRYRGYDELRHDLARMFGIEGQLEDPQTSDWKLVYVDHENDILLVGDDPWEEFVNCVQSIKILSSAEVQQMSLDGNFAGVPVTNQACSGGDSGNAWRGHYDDNSATSFNR
Target sequence (chain): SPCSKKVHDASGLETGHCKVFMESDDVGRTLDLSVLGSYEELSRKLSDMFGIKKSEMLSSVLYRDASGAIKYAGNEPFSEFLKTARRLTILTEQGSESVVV
Sequence | positive tests
B1 (IAA18) | 0
B2 (ARF14 497-605) | 0
B3 (ARF8 699-811) | 0
B4 (IAA32) | 2
B5 (ARF4 660-788) | 0
B6 (IAA19) | 0
B7 (ARF2 727-859) | 0
B8 (ARF7 1030-1164) | 0

Further values, each from its own experiment
Starting sequence: viral docking peptide; YKVKRRLVFGADD; partner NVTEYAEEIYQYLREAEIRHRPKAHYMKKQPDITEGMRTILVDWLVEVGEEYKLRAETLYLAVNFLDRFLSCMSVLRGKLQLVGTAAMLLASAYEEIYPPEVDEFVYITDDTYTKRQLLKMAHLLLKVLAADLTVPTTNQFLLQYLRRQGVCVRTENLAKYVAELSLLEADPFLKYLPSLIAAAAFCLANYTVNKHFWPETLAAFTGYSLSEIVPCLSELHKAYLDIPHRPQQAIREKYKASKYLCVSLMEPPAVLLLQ
Variant | target | assay | test system | conditions | how to read | measurement | value
K4N | CCNA1, cyclin fold, Cln2 fusion (human) | yeast growth competition, sequencing | yeast | strong parent motif | reference: not given, higher = stronger binding | normalised enrichment score | 0.817

For quick reference, copied from above (study 3):
Sequence | positive tests
B3 (ARF8 699-811) | 0
B4 (IAA32) | 2
B5 (ARF4 660-788) | 0
B6 (IAA19) | 0
